# Results from different studies.
# Each numbered part is a random draw from the data of one study; scales do not carry over between parts. Substitutions count along the parent as printed.

# Block 1
# Target: Histone acetyltransferase KAT6A, both winged helices, GST fusion (KAT6A, Homo sapiens, UniProt Q92794, residues 1-181)
# Technique: protein binding microarray
# Molecule type: double-stranded DNA, one strand shown
# Medium: in vitro
# Concentration: not given
# Notes: 8-mer, flanks averaged, mean of 2 arrays, mostly near background
# Baseline: not given
# Reading: higher = stronger binding
# Residues (chain): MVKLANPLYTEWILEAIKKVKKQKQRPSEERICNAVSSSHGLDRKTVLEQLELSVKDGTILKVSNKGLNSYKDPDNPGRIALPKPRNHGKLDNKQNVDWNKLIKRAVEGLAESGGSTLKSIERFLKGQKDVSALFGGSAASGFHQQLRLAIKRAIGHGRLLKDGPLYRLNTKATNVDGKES
Strand,E-score
TGAGCGCA,0.111
CAAACTCA,-0.0693
CGTGTCGC,0.245
GATACATC,-0.0717
AAGAGGGT,-0.2
AAACGGAG,0.192
CTGCAAGC,-0.0721
CTCGGGTA,-0.00161
AGATTTAC,-0.127
GTACTGTA,-0.0509
GTGGTTCA,-0.00108
GACACTAA,-0.00103
CCGCTGCC,0.142
AACCGACT,0.0896
CACGTTAG,-0.136
CGCAGCAC,0.139
GTTCTCGA,-0.0796
GCTATGAA,-0.0664
AAGCTGGA,-0.187
AATAGAGC,-0.159
ACCATTCG,-0.0622
CGATGACC,0.193

# Block 2
# Target: CCND3, cyclin fold, Cln2 fusion (human)
# Technique: yeast growth competition, sequencing
# Medium: yeast
# Notes: weak parent motif
# Baseline: not given
# Reading: higher = stronger binding
# Starting sequence: BRCA2 docking peptide (human); PSIKRNLLNEFDR
Substitution,normalised enrichment score
L8H,0.146
S2H,0.0439
D12W,0.21
E10D,0.206
S2I,0.049
P1R,0.21
D12I,-0.0255
P1Y,0.168
N6V,0.0797
I3A,0.152
F11P,0.0455
R13V,0.124
E10L,0.121
L8M,0.187
I3V,0.00262
N6P,0.198
R13K,0.0466

# Block 3
# Target: ABI1, truncated, D143A, DHFR fusion (Arabidopsis thaliana)
# Technique: DHFR PCA, deep sequencing
# Medium: yeast
# Notes: methotrexate growth selection, single substitutions
# Together with: (+)-ABA 17 µM
# Baseline: wild-type fitted maximum
# Reading: higher = stronger binding
# Starting sequence: PYL1, truncated, DHFR fusion (Arabidopsis thaliana); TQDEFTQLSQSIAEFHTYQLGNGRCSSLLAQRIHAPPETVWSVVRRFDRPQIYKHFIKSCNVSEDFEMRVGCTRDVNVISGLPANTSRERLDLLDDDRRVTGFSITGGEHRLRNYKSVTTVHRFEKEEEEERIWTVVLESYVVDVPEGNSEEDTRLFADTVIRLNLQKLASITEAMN; partner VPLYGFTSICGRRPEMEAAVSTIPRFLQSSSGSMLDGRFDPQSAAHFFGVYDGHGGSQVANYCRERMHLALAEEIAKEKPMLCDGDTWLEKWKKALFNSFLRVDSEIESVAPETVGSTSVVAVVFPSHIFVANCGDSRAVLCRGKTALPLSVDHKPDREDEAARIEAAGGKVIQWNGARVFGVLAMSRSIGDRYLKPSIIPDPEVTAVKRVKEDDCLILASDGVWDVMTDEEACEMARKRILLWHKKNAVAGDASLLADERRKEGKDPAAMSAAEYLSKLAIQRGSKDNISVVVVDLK
Substitution,relative binding score [%]
E14F,29.7
V100I,86.6
I133V,101
F157I,42.8
D153S,8.79
N149R,9.46
E151L,77
D75Q,86.3
G23Y,51.4
G102S,82.7
C72N,71.9
E129T,83.4
I52R,77.3
R99F,99.7

# Block 4
# Target: RNA binding protein fox-1 homolog 2, RRM domain, GST-SBP tag (RBFOX2, Homo sapiens, UniProt O43251-10, residues 100-194)
# Technique: RNA Bind-n-Seq
# Molecule type: RNA
# Medium: in vitro
# Concentration: 365 nM
# Notes: natural RNA segment, single round, ends assumed
# Baseline: no-protein control
# Reading: higher = stronger binding
# Target sequence (chain): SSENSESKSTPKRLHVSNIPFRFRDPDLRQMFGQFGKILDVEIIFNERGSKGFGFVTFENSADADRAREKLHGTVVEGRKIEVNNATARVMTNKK
Strand,RBNS enrichment (R)
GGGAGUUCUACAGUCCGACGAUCUACUGGCCAAAAUCAAUGUUAUUCCAUAUUUUAUUUUUUCUAUUAAAUUAACCUAAGUUCCUGUUUAUUUGAUCUGUUCAUACCCACGUAUAAACUUCUCUGAAAGGGUAUGGAAUUCUCGGGUGCCAA,1.17
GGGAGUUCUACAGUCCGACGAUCCCUCCUGCAUUUGUUGAUACCACUAACAAAAUGCUUUGUAACAGACUUGCGGUUAAUUAUGCAAAUGAUAGUUUGUGAUAAUUGGUCCAGUUUUACGAACAACAGAUUUCUGGAAUUCUCGGGUGCCAA,0.27
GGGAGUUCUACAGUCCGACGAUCGCUUUCAGGAGGGCCAGUUCCAAUCCUGAUCACAGCCUGCAUGGAUUUCCACUUGCCUGGUGCUUGCAGUUUGAAGGGAAGGAGGAAGAGGGAGGCAGAAAAGGAAGGCAUGGAAUUCUCGGGUGCCAA,12.5
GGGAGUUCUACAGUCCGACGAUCAUCCCUGAUCUGAGUUGAUUUGUUUGACUGUCUUUGGGGCAAACCUUAGCAGCUCAGUAGAUUCUUCAGGAUAACAGUAAAUGGCUUAUUGUAACUUGAAACACUAUAUUUGGAAUUCUCGGGUGCCAA,0.331
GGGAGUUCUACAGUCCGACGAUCAAAUCCACUUCUGGGACAGGCAGUACUGUCUGCAGCGAUACCCCCAAUAAACGGAACUUUUUAACCCCUCUGUGCCACUGUGCCUGGCCUUUCCCUCCUCUAAGUGGCUCUGGAAUUCUCGGGUGCCAA,0.458
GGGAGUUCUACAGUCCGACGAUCCGGUAAAAUGCUGUGACUGUUUACUUUCAAUUGCAUUGUGUGUUGCCUGUGACUGCUUUCAAACGCUAGAGGGGGCCUCUGAUUUAAAGAAAUAAAAAGGACUUUUCUAAUGGAAUUCUCGGGUGCCAA,8.44
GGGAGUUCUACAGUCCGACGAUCCCAUGAAGUGAUUCUGUUGACAAUAAUGUAUACUGCGCGUUCUCUUCACUGGUUUAUCUGCAGAAAUUUCUCUGGGCUUUUUUCGGUGUUAGAUUCAACACUGCGCUAAAUGGAAUUCUCGGGUGCCAA,0.466
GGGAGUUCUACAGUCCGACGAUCCAUGACUUUUAAGUAUUUUUUUAUAAACAGCUCAAUAUAAAACAUAGACAGUGUUUGAUUAUUUUCCUUGUGUAAGUUUGAUUUAAAACGUUGGAAAUGUGUGCUUUUUAUGGAAUUCUCGGGUGCCAA,0.403
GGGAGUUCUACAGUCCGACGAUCACAGCUUUUAUUUUCAACUGCUUCCCAACUUGGUGGGGCCUCCUUUAAGGAUGAGCCAAUAGUAAGAAUGUGGCUGUAAUCAGCAGAGACCCCUCUGAGGGGUAUCUGUUUGGAAUUCUCGGGUGCCAA,0.32
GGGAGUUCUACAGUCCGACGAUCGUAGCAAUUUGCAUUUUAAAAUGCCUGAGCAUUUAUUAAGCUUCUUGGUAUUCACUUGGGUUUGAUAAUUGAUCUGAGCUACCUCAUUGAAUGUUUUUGGAAAGGUGUUUUGGAAUUCUCGGGUGCCAA,1.17
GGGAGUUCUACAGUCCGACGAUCCCUCUUUGCUGUUUCUCUGGGCUCCUGAGCAUACCAGGGGAAGUUCUAGAAACCGCAGCUGACAUCUCGACCCAAGAGAUUUAGGAUUCUCCUGUUUCAUCUGGGUCAGUUGGAAUUCUCGGGUGCCAA,0.22
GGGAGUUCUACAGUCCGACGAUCGGUGAUGAACAGGAGCCUAUUUCAGUGAAGGAGGAGCCAUGGGCUUCCCAGAGUUCUGGCAGGCAUCCGCACCAUGGGGAAGCUUCAUCUACCAAUGAUUGUUUAGCUAGUGGAAUUCUCGGGUGCCAA,0.431

# Block 5
# Target: RING finger protein unkempt homolog, zinc fingers 1-6, GST-SBP tag (UNK, Homo sapiens, UniProt Q9C0B0, residues 30-357)
# Technique: RNA Bind-n-Seq
# Molecule type: RNA
# Medium: in vitro
# Concentration: not given
# Notes: RNA with constant flanks, ends assumed
# Baseline: input RNA pool
# Reading: higher = stronger binding
# Construct (chain): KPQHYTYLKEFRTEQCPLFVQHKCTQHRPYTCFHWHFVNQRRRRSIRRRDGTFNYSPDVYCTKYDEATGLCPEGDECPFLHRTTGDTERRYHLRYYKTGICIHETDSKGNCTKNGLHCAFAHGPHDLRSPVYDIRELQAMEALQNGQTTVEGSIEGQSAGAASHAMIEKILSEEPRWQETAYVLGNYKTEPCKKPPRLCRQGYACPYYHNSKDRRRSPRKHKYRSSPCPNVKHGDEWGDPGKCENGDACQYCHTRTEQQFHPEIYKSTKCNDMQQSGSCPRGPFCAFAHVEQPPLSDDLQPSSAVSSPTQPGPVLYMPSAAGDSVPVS
Strand,bound/input enrichment [ratio]
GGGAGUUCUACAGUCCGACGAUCGGCACUGACCUGCCAUGCCUCGCCUGGAGGCUCAGCUGUGGGCAUCCCUCCAUGGGGUUCACCGAAAUAAGUGCAAUUUCUACACCCCCGAAACAAUUCAAAGGGAAGCAGCAUUUCUUGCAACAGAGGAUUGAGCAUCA,0.129
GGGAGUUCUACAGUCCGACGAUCGUCGACGUGUGCAGAAAUCCUGCUAGUCUGGUCCUUGUUUCCAUCUGGGUACCAGCUCCCUUCCGCCUUGCAGACGGUGGUGCGAGAGGCCAGCGGCCAGAAGAGACAGCUUGCUUCAAUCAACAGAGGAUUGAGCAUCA,0.207
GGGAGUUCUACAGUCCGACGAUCUUACUUACUUAAUUUCUGGAGUUCGGGCCUCUGGGAUAGGCCCCAGACUGGGCCGGAAUGUCCGUGAAGGUUUUAUUGUGCCCGGUUGGAGGAUAAUGUUCUUUGUGUACUUUUUGUGGGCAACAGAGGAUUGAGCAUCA,0.308
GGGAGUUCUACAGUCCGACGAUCAUAAAGGCUAUGUUGAGUGGUCCAGGUCAGUUUGCUGAGAAUGAAACCAACGAGGUCAAUUUCCGAGAGAUCCCCUCACAUGUGCUAUCAAAAGUGUGCAUGUAUUUUACCUACAAGGUCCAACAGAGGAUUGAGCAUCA,0.103
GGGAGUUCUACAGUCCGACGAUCUUGGCAGAAGGUGUCAUUUUAAGACGAGUAGGCGAAGCAAGGACUCAACACGGAGGCCGUCACGUUUCCCGGAAAUCCGAACACUUGAGUGUCAGACCACAGACUGCGUUGGAAGAAAACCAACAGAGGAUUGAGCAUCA,0.148
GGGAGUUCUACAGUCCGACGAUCACAGAAGUGGAUCGAGCAAGUCACUGGUCGAAGUUUUGGUGACAAAGACUUCCGGACAGGACCCGAAAAUGGGAUCCUCCUUUGCGAGUUGCUGAAUGCUAUAAAGCCAGGACUUGUUAACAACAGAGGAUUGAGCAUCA,0.119
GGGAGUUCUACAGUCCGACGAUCGGAUUCUAUGAGUUUCUAAAUUGGUUUGAUGAAAGAGCAUGGUACCCACUGGGAAGAACCGUGGGUGGCACCGUUUACCCAGGGUUGAUGAUAACAGCUGGCCUUAUUCAUUGGAUUUUACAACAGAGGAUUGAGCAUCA,0.134
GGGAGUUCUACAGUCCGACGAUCGAUGCAGUUAAGGAAGAAAAUCUGAAGCUAAAAUCAGAAAACCAAGUUCUUGGACAAUAUACCGAAAAUCUCAUGUCAGCUUCUAGUGUUUUUCAAACAACUGACACAAAAAGCAAAAGACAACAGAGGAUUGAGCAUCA,0.0768
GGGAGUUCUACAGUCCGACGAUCAAAGCACACAGACUUCUCAGCCCAUGUACUGUGCCUGCCAAGCCAUUGGAACCUGAAACCGCCGCCCGCGAGAACUUGCGCAGCCACAUACCAAAGCCGAAGGCUACUCUGUGCCAUUCCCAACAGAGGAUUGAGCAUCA,0.147
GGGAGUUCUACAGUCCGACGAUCGUAAUCAGCAGAGACAUUGAUACUGCUGCCAAAUUCAUUGGUGCAGGUGCUGCAACAGCCGGAGUUGCUGGUUCUGGUGCUGGUAUUGGAACAGUCUUUGGCAGUCUUAUCAUUGGUUAUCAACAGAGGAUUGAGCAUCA,0.195
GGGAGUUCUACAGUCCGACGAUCCCAUCAGCUUCUGAAGUUCCCGAUAAUAGGGCAUCUGAAGCUUCUCAGGGAUUUCGAUUUCUCCGGCGAAGAUGGGGUUUGUCAUCUCUUAGCCACAAUCAUAGCUCUGAGUCAGAUUCACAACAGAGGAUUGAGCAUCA,0.169

# Repeated from above (block 1):
Strand,E-score
AAACGGAG,0.192
CACGTTAG,-0.136
GTACTGTA,-0.0509
CCGCTGCC,0.142
AGATTTAC,-0.127
GACACTAA,-0.00103
CGATGACC,0.193
AATAGAGC,-0.159
GATACATC,-0.0717
CGTGTCGC,0.245
AACCGACT,0.0896
